Measurements gathered from unrelated publications.
Numbered parts are unrelated; each lists some results of a single study.

Sample 1
Target: Sal-like protein 4, full length isoform A (SALL4, Homo sapiens, UniProt Q9UJQ4, residues 1-1053)
Sequence of UniProt Q9UJQ4 (whole entry, looked up): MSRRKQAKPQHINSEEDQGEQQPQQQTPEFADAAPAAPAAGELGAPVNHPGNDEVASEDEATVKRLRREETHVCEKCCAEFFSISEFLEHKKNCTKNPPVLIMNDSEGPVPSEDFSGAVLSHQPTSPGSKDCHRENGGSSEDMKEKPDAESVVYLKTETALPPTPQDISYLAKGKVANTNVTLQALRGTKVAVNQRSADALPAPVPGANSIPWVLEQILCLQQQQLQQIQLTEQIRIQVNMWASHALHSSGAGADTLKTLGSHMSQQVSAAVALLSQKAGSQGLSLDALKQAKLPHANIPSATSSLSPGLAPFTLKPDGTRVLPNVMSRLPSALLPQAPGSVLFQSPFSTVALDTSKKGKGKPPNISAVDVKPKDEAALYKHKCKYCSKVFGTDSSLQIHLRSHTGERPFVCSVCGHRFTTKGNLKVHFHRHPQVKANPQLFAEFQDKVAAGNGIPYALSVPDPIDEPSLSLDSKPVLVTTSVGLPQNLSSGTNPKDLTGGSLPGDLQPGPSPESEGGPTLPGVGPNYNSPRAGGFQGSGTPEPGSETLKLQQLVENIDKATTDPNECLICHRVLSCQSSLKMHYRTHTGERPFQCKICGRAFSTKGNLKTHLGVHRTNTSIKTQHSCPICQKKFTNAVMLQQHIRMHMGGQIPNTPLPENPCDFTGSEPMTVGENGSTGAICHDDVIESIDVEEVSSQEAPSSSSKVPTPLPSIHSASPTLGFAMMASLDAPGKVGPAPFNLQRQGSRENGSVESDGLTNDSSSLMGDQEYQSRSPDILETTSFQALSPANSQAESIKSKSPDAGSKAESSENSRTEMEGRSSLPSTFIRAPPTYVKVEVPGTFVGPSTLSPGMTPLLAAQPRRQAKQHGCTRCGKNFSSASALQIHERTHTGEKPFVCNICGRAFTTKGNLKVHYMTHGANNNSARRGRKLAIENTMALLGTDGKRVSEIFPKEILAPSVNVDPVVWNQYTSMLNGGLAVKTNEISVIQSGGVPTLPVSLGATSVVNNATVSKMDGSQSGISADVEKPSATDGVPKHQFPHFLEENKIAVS
Method: universal PBM
Molecule type: double-stranded DNA, one strand shown
Matrix: in vitro
Concentration: 600 nM
Setting: 8-mer, flanks averaged, mean of replicates
Reading: higher = stronger binding
| Oligonucleotide | E-score |
| --- | --- |
| GTTATCGA | 0.128 |
| CGACAGAA | -0.00304 |
| GGAGAGCC | -0.233 |
| AATCGACA | 0.236 |
| ATGATCCG | -0.0136 |
| CTCTGACA | 0.0715 |
| AGAGTGCC | -0.197 |
| ATATTCGA | 0.276 |
| CCCGTCCA | -0.107 |
| CAACGCTG | -0.176 |
| GCCAGGAA | -0.12 |
| CGCAACTA | 0.0265 |
| AATGCAGA | 0.144 |
| AGAGGTAA | 0.133 |
| ACAAGACG | -0.0763 |
| GAGAGTTA | 0.185 |
| ACCTATGA | 0.038 |
| CGCGTTTC | -0.286 |
| ATTAGTAG | 0.304 |
| ACCTTACG | 0.0671 |
| GGCCGTAC | -0.159 |
| CCGAGTCG | -0.335 |

Sample 2
Target: Ras GTPase-activating protein-binding protein 1, full length (G3BP1, Homo sapiens, UniProt Q13283)
Sequence of UniProt Q13283 (whole entry, looked up): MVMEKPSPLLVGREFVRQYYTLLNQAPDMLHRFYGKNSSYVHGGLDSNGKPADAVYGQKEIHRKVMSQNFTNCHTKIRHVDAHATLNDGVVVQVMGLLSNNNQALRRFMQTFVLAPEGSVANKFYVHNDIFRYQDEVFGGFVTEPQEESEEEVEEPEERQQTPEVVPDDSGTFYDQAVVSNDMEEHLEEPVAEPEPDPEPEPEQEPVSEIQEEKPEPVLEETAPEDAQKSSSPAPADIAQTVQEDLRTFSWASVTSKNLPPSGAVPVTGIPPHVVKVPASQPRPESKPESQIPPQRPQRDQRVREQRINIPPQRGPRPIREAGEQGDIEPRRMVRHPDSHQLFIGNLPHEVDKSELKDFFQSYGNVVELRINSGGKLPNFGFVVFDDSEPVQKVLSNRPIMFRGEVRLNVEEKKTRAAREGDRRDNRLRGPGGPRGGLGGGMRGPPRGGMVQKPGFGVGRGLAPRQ
Method: RNA Bind-n-Seq
Molecule type: RNA
Matrix: in vitro
Concentration: 200 nM
Setting: whole 134-nt RNA, ends assumed
With: 150 mM LiCl
Relative to: input library
Reading: higher = stronger binding
Library: 7-deaza-guanosine replaces G
Shared flanks, not repeated: GGGAGUUCUACAGUCCGACGAUC … UGGAAUUCUCGGGUGUCAAGG
| Oligonucleotide | log2 enrichment |
| --- | --- |
| GUCCUGUGCUACACAUCGUAUGUACCGAAUCAAAUUUAAAUUUUUAAACCCCCCCAAAAAAGUAUUAUGUUACGCCGUUCGGAUCUGCAC | 1.09 |
| CCUGUGCUACACAUCGUAUGUACCGAAUCGGUUUUUUGGGGUUUUUUGGGGUUUUUUGGGGAAAGUAUUAUGUUACGCCGUUCGGAUCUG | 0.717 |
| ACCAUGCAGGUGGGCAUCUUUGGGAAGUGGGGCAAGGGGGUGAUAGGGAGGGGGGUAACACUUUGGGAACAGGUGGUCCCAGGUCGUUUC | 0.176 |
| UUUCAGGGCGCCCUGCGUCCGGCAGAGGAGGCGAGCAUCCCGCUCAGGUGAUGAGGAACCCCUCGCGCACCCAGCGCAGAAGGCUGCUGC | -2.12 |
| CACAGACAACACGCACCCACACAGACACAGAGGGAAGGGGUUGGGAUGGGGACAGGGUGCACAGCAGGGCGGUGUAGGACCCCAGCCCCU | 0.719 |
| GCAGGAAGUAAAAACAAAUGGAAAUGCUUCGGAUAGUGGCAGGGGUGGGUGUUGCUAAGGAAAGGGUGGGAUGGGAGUGGGUAAAGAGUU | -0.21 |
| UGGCACUGGUGGCAUGCGGGGAGGAAGAGGUGGCCUCAUGGAUCGUGGUGGUCCCGGUGGAAUGUUCAGAGGUGGCCGUGGUGGAGACAG | -0.132 |
| ACCAUGCAGGUGGGCAUCUUUGGGAAGUGGGGCAAGGGGGGGAUAGGGAGGGGGGUAACACUUUGGGAACAGGCGGUCCCAGGUCGUUUC | 0.101 |
| AAGUCCUGUGCUACACAUCGUAUGUACCGAAUCGGGUUUGGGUGGGUUUUUUUGGGAAAGUAUUAUGUUACGCCGUUCGGAUCUGCACUU | -0.403 |
| ACCAUGCAGGUGGGCAUCUUUGGGAAGUGGGGCAAGGGGGGGAUAGGGAGGGGGGUAACACUUUGGGAAAAAGUGGUCCCAGGUCGUUUC | 0.379 |
| AAGUCCUGUGCUACACAUCGUAUGUACCGAAUCGGGGCCCGGGGCCCGGGCCCGGGAAAGUAUUAUGUUACGCCGUUCGGAUCUGCACUU | -1.06 |

Sample 3
Target: Histone acetyltransferase KAT6A, winged helix 2, GST fusion (KAT6A, Homo sapiens, UniProt Q92794, residues 85-181)
Method: protein binding microarray
Molecule type: double-stranded DNA, one strand shown
Matrix: in vitro
Concentration: not given
Setting: 8-mer, flanks averaged, mean of 2 arrays, mostly near background
Relative to: not given
Reading: higher = stronger binding
Residues (chain): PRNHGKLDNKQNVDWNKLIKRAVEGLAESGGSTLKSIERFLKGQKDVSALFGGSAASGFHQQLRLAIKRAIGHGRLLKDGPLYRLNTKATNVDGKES
| Oligonucleotide | E-score |
| --- | --- |
| GCGAGTAC | 0.0524 |
| ATTTACAC | -0.261 |
| ATGGTTTC | 0.0132 |
| ATGCAAAT | -0.0985 |
| AGTGTGAC | -0.146 |
| CGGCAGCA | 0.0986 |
| CAAGTGGG | 0.0472 |
| GGAAGAGA | -0.0189 |
| GTGTCAAC | -0.0307 |
| TCGAGTCA | -0.153 |
| ATACAAGA | -0.027 |
| CAGACTGA | 0.0976 |
| ATTTCTTC | 0.14 |
| CATTTAGA | -0.108 |
| GCGTAGTA | -0.127 |
| CCACGCCC | -0.0628 |
| CACGTCCC | -0.236 |

Sample 4
Target: Centromere-binding protein 1, full length, His-tagged (CBF1, Saccharomyces cerevisiae, UniProt P17106, residues 1-351)
Sequence of UniProt P17106 (whole entry, looked up): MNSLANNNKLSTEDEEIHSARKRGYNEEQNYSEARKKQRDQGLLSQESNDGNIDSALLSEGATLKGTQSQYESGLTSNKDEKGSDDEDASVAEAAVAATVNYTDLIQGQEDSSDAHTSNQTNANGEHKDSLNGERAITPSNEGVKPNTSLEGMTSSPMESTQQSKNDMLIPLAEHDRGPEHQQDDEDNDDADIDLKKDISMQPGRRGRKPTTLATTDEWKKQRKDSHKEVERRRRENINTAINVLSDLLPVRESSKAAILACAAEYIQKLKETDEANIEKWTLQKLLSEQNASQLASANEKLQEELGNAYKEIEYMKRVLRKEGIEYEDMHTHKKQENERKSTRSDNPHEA
Method: competition protein-binding microarray
Molecule type: double-stranded DNA, one strand shown
Matrix: in vitro
Concentration: 2 µM
Setting: whole 60-bp probe, lowest competitor level
With: Pho4 competitor, 0.05 µM
Reading: higher = stronger binding
Shared flanks, not repeated: … GTCTTGATTCGCTTGACGCTGCTG
| Oligonucleotide | fluorescence intensity [a.u.] |
| --- | --- |
| CTTTCCCGATCTTGCTACGTGGGTGTAGCACATTTG | 77.7 |
| AATCGCGATCCCCATCACGTTCTTTAGCCTCATTAT | 233 |
| CTTTCCCGATCTTGAAACGTGGGTGTAGCACATTTG | 88.6 |
| CTAACGAAGGTTTGCGACGTGGGTGACAAGCCAAGT | 75.1 |
| GTCTTGTCTCATTTTCACGTGGCGTTCCCCACTTCA | 569 |
| CTTTCCCGATCTTGTCACTGTACTTTAGCACATTTG | 79.4 |
| AATTGGCGTAATCCAGCCGTGATGGCGATGACCAGG | 56.6 |
| GGTAATCCCTAAGAACACATGCCCATAGTGGAAGAT | 133 |
| CGTCCTAGTGATTGGCTCGTGGGTGCCATGAGGAAG | 87.8 |
| CTTCTGTAAATTTTTCACGTGGGTTGACGCGCCCCG | 694 |
| CCCGGACATGTACGCCAGGTGATGTTCCATTTGCCA | 90.7 |
| CGGGGTTAAGTTTGAAGAGTGGGTGGCTTGCAGCAG | 57.1 |
| CGCTTCATATAATGTTTTTTGATTTGCAGCAAATGC | 95.2 |
| CCAGCAGAAACGCTACACGTGATGGTAATGGAACTA | 2760 |
| AAAGCGGTAATTTTTCACGTGTTATCAAATATCTAT | 1480 |
| GGGCGCCGCGACGGTCACGTGCACAGCGGCAGGCCT | 13300 |
| AAATTACTAAGTTGGGTCGTGGGTGACGCCGTATGA | 62.9 |
| TGCGCAACAACTTGTAATGTGGGTGTATGTCTAGAA | 82.4 |
| AAGATGGCAGACGACCACGTGTAGGATCCCTAGTTC | 697 |
| GTCGAAAAACCTCCGCACGGCAGAAGTGTTATGCTG | 72.5 |
| CAGTTGTTACAGTTGCCCGTGAAGGTAGCAATGAAC | 86.4 |
| CTAACGAAGGTTTGGCCCGTGGGTGACAAGCCAAGT | 64.1 |
| TGAATCTAGACCGTCATCGTGCGGACTCCTAGATCC | 59.4 |
| TGGTTACAAGATATACGCGTGACTCGTTTTTTATTT | 652 |
| TTTAGTGCGAACGCCTACGTGTCCTGTTAACTTATC | 73.5 |

Sample 5
Target: Prothrombin, mature alpha-thrombin (F2, Homo sapiens, UniProt P00734)
Method: aptamer microarray, sandwich
Molecule type: DNA with 2'F-ANA
Matrix: in vitro
Concentration: 200 nM
Setting: whole 15-mer aptamer, many near background
With: Cy3 exosite-II aptamer, 400 nM
Reading: higher = stronger binding
Oligonucleotide: GGTTGGTGTGGTTGG
| Modification | mean fluorescence intensity [a.u.] |
| --- | --- |
| 2'F-ANA at 1 3 4 5 8 9 10 12 13 | 45.9 |
| 2'F-ANA at 1 2 5 6 7 11 12 13 | 68.2 |
| 2'F-ANA at 1 4 7 8 10 11 15 | 58.6 |
| 2'F-ANA at 1 5 6 9 10 12 15 | 50 |
| 2'F-ANA at 6 9 15 | 469 |
| 2'F-ANA at 1 2 3 6 8 9 12 13 14 | 79.5 |
| 2'F-ANA at 1 2 3 7 8 9 10 13 14 15 | 57.4 |
| 2'F-ANA at 2 3 6 7 9 10 14 | 275 |
| 2'F-ANA at 2 3 6 9 10 14 | 286 |
| 2'F-ANA at 1 2 4 8 11 12 13 | 186 |
| 2'F-ANA at 1 2 3 7 8 9 | 238 |
| 2'F-ANA at 3 6 7 9 12 | 1110 |
| 2'F-ANA at 2 3 4 5 6 8 11 | 86.1 |
| 2'F-ANA at 1 2 3 4 7 8 10 11 13 14 15 | 52 |
| 2'F-ANA at 1 2 4 5 6 7 8 9 10 11 12 14 | 46.5 |
| 2'F-ANA at 3 4 6 7 8 11 12 14 | 360 |
| 2'F-ANA at 1 2 4 6 7 9 12 14 | 61.3 |
| 2'F-ANA at 1 2 5 7 8 10 11 13 14 15 | 103 |
| 2'F-ANA at 1 2 3 4 5 8 9 14 | 49.2 |
| 2'F-ANA at 1 2 3 4 5 6 7 8 10 12 15 | 50.4 |
| 2'F-ANA at 3 7 8 12 13 | 1310 |
| 2'F-ANA at 4 6 8 9 10 11 12 15 | 90.1 |

For quick reference, copied from above (sample 1):
| Oligonucleotide | E-score |
| --- | --- |
| AATGCAGA | 0.144 |
| AATCGACA | 0.236 |
| ATGATCCG | -0.0136 |
| CAACGCTG | -0.176 |
| AGAGTGCC | -0.197 |
| GTTATCGA | 0.128 |
